Published values from different studies.
Every numbered part comes from another study and shows a few of its results, in no order.

Study 1 — technique: RNA Bind-n-Seq; molecule type: RNA; medium: in vitro; tested at: not given; notes: RNA with constant flanks, ends assumed; relative to: input RNA pool; direction: higher = stronger binding
Target: RING finger protein unkempt homolog, zinc fingers 1-6, GST-SBP tag (UNK, Homo sapiens, UniProt Q9C0B0, residues 30-357)
UniProt Q9C0B0, sequence (30-357, looked up): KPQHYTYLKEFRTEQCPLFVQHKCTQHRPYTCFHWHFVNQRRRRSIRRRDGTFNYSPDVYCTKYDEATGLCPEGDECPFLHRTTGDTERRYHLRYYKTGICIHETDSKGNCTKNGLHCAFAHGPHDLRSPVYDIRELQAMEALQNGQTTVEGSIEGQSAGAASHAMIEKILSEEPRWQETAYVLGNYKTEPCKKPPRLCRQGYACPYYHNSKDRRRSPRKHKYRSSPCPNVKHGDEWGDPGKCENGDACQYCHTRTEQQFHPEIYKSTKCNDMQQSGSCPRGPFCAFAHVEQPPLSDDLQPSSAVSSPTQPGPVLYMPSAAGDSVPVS
All sequences stand within: GGGAGUUCUACAGUCCGACGAUC … CAACAGAGGAUUGAGCAUCA
Sequence | bound/input enrichment
GCUGGAUAUGGAGACAUUUACCUCAAUGCUGGUCCCAUGUUGUUUAGUGGAGACAAGGACCACCGAUUUGAAUAUAGCCAUGGUCCUAUCACAGUCCUCACAAACAGCAAUGACCCUUCC | 0.107 ratio
ACCCGUGUAAACAUUAUUCCCCCCAGGAGAAAAUGGUGUUAUUCAAAUGAAUCAUAAUAAAACCGCCUCUAAACAGUUUCUAAGCGGGAGCCUCCGUGGAACUCAGCGCUCCGCUCCUCC | 0.535 ratio
GGAGCUGCGGGAACCGGACUCCGGGCGGGUUGGACUGCUGGAGUCAAUGAGAGAAGCUUUCCGGUUAAUUUGAAUAUAAGAUCAGAUCUGAUUGGCCCACCUGGACACCCCUUCAAGGAA | 0.236 ratio
UGGAGUCUGGCUUUGAAAGAUUUCAUUGUUGGUAGAAAUAACAGGUUGAGAAAGAGGGAGUCCGCAUCACCUAAAACCUGCACGUGAACAAGGGUUGACAUGAUACACUAUGGCCUUAGA | 0.297 ratio
AAUAGUAGUACAGCUAUUGGAAUCAGAUGCAAAGAUGGUGUUGUCUUUGGGGUAGAAAAAUCCGUCCUUUCUAAACUUUAUGAAGAAGGUUCCAACAAAAGACUUUUUAAUGUUGAUCGG | 0.198 ratio
AACCAAUCAAAAACCACUCCUUUUAAAGAUUGCAAAGUAUUAAAACAAAGGCCAAGGUUUGCCGCCCUGAAGAAGCAGCCAUCCUAUAUUGGAGGACAUGAGGGCUUAGAAUUAAGAGAU | 1.08 ratio
CGGGUCGGAGAUUAUGUCUACUUUGAGAAUUCCUCCAGCAACCCAUACCUAAUAAGAAGGACCGAAGAACUCAACAAGACUGCAAGUGGCAACGUGGAAGCAAAAGUAGUAUGCUUUUAU | 0.804 ratio

Study 2 — technique: protein-binding microarray; molecule type: double-stranded DNA, one strand shown; medium: in vitro; tested at: 0.8 µM; notes: whole 60-bp probe, no competitor; direction: higher = stronger binding; all sequences stand within: … GTCTTGATTCGCTTGACGCTGCTG
Target: Centromere-binding protein 1, full length, N-terminal tag (CBF1, Saccharomyces cerevisiae, UniProt P17106, residues 1-351)
UniProt P17106, sequence (whole entry, looked up): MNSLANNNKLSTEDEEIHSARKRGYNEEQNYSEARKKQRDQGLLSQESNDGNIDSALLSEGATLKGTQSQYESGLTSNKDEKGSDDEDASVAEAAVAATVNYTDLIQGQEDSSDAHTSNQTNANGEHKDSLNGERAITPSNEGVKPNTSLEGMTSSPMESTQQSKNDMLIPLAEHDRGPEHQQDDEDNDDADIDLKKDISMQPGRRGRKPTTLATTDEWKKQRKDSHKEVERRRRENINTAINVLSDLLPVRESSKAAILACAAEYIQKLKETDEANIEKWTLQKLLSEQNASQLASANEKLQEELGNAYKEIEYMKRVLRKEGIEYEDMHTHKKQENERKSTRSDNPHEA
Sequence | fluorescence intensity
CTAGAACAAATTTTCCACATGCTTGTGCCTGCTTTC | 516 a.u.
GAATTTTAAGCTTTTCTCCTGATCGCTTTATCCTAG | 521 a.u.
CTAGCATAAAACAACCATGTGGAGTTTTTACTGTTC | 589 a.u.
CTAGCAGAAAGATACATCAGAACAATAGTAACTTTC | 540 a.u.
GAAGGTAAATATGGTAACGTGCGACAATAAACATAG | 1440 a.u.
CCTAACTACTATATGCACGTGCGATAGCTTCGTACA | 10000 a.u.
GAATCTCCGACCAGTCACGATTAATTAAATTGCTAG | 718 a.u.
GAATTATCATTTGTGCTCGTGAGGCTATGAAATTAG | 631 a.u.

Study 3 — technique: aptamer microarray, sandwich; molecule type: DNA with 2'F-ANA; medium: in vitro; tested at: 200 nM; added: Cy3 exosite-II aptamer, 400 nM; direction: higher = stronger binding; sequence: GGTTGGTGTGGTTGG
Target: Prothrombin, mature alpha-thrombin (F2, Homo sapiens, UniProt P00734)
Notes: whole 15-mer aptamer, many near background
Modification | mean fluorescence intensity [a.u.]
2'F-ANA at 1 4 5 6 7 8 11 12 14 | 52.6
2'F-ANA at 4 7 8 11 15 | 329
2'F-ANA at 2 4 6 8 14 15 | 95.6
2'F-ANA at 2 5 14 15 | 46
2'F-ANA at 2 3 6 7 9 12 14 15 | 378
2'F-ANA at 1 2 3 5 9 11 12 | 108
2'F-ANA at 2 3 4 6 8 10 11 12 13 15 | 176
2'F-ANA at 2 3 4 5 6 9 10 14 15 | 47.8
2'F-ANA at 1 3 5 10 11 14 15 | 55.5

Further values, each from its own experiment
Molecule | target | assay | system | conditions | scale | endpoint | value
PhoQ, residues 284 288 289 292 302 303 ALSMDL | PhoP, residues 12 14 15 18 19 LHHSG (Escherichia coli, UniProt P23836) | Sort-seq, item: YFP reporter | E. coli | PhoQ-PhoP variant library, added: 10 µM Mg2+ | relative to: high Mg2+ state, higher = stronger signaling | fold induction | 10.3

For quick reference, copied from above (study 2):
Sequence | fluorescence intensity
GAATTATCATTTGTGCTCGTGAGGCTATGAAATTAG | 631 a.u.
CTAGCAGAAAGATACATCAGAACAATAGTAACTTTC | 540 a.u.
